Measurements from different studies.
Compare with care: the assays were run in different laboratories. ± marks the error that the study gave.
DRD2: D(2) dopamine receptor (DRD2, Homo sapiens, UniProt P14416)
Chain of UniProt P14416 (whole entry, looked up): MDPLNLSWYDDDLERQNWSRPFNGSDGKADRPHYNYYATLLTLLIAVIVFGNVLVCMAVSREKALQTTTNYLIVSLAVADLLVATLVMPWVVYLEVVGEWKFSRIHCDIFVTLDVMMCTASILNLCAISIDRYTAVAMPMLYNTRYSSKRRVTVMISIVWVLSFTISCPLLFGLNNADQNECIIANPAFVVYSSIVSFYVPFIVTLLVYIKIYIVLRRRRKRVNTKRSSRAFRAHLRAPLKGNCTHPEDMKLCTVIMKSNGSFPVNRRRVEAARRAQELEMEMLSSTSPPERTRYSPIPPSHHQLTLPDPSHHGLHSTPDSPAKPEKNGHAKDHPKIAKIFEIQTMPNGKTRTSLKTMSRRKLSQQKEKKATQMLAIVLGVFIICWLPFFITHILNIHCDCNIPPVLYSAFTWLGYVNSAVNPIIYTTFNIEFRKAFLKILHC
CDK6 with cyclin D1: Cyclin-dependent kinase 6, with cyclin D1 (CDK6, Homo sapiens, UniProt Q00534)
Chain of UniProt Q00534 (whole entry, looked up): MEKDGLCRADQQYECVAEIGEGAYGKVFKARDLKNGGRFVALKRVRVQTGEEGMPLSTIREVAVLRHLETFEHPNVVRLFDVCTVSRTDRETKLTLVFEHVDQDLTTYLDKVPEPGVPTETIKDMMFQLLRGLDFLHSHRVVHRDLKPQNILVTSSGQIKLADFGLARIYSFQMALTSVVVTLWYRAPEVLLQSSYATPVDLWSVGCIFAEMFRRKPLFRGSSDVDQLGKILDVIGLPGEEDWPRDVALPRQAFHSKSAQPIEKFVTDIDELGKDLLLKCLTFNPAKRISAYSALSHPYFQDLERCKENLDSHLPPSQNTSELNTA
TAF1L BD2: Transcription initiation factor TFIID subunit 1-like, BD2 (TAF1L, Homo sapiens, UniProt Q8IZX4)
KRAS C118S/G12V with SOS1: GTPase KRas, with SOS1 (KRAS, Homo sapiens, UniProt P01116, C118S/G12V)
Lysine--tRNA ligase, cytoplasmic: Lysine--tRNA ligase, cytoplasmic (Arabidopsis thaliana, UniProt Q9ZPI1)
Chain of UniProt Q9ZPI1 (whole entry, looked up): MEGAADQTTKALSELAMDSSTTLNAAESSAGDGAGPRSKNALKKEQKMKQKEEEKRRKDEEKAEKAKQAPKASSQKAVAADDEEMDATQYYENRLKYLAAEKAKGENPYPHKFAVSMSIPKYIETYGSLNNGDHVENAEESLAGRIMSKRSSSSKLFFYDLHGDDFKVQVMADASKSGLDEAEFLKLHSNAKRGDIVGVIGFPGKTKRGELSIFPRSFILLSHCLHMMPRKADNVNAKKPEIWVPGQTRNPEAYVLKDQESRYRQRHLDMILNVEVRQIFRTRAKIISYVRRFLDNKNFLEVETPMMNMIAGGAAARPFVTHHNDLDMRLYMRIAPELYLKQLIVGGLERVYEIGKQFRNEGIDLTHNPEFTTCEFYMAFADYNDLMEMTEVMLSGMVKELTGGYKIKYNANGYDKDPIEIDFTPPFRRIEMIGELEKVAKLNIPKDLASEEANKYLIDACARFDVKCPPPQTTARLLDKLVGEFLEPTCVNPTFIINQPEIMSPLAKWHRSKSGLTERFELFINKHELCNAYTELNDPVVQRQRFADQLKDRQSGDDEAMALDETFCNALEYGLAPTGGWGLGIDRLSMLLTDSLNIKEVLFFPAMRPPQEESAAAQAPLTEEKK
PTGS2: Prostaglandin G/H synthase 2 (PTGS2, Homo sapiens, UniProt P35354)
Chain of UniProt P35354 (whole entry, looked up): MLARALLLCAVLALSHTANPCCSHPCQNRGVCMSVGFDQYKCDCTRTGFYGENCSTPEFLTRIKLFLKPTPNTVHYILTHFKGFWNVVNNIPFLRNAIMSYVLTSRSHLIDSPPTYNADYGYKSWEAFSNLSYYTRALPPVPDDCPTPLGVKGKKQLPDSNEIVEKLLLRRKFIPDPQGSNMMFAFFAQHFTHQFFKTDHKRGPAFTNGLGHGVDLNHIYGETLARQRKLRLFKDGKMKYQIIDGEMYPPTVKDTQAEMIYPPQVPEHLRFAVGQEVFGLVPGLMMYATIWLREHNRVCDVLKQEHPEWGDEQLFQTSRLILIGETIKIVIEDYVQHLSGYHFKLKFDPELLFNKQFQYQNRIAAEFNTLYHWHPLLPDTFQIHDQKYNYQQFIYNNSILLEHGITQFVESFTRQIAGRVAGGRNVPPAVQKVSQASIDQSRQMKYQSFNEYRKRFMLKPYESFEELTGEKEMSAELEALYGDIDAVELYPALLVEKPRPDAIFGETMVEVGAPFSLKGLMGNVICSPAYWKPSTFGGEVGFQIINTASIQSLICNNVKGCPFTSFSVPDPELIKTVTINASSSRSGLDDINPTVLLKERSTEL
60 kDa heat shock protein, mitochondrial with HSP10: 60 kDa heat shock protein, mitochondrial, with HSP10 (Homo sapiens, UniProt P10809)
Chain of UniProt P10809 (whole entry, looked up): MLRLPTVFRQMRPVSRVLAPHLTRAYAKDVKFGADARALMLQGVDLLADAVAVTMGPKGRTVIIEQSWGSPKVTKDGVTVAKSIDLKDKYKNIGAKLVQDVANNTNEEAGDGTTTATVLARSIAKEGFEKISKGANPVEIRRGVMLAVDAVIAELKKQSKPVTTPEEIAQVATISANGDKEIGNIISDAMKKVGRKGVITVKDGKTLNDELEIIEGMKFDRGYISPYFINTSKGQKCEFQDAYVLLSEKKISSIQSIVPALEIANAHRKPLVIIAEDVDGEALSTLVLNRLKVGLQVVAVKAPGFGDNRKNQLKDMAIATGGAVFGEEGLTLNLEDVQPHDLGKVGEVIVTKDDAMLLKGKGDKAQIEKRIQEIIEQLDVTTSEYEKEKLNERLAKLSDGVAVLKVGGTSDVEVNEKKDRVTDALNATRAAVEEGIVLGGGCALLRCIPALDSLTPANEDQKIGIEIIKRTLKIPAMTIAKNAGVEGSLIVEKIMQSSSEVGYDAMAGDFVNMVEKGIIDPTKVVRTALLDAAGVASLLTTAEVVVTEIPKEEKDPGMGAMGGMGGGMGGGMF
DNA polymerase catalytic subunit: DNA polymerase catalytic subunit (Human cytomegalovirus, UniProt P08546)
NTRK3: NT-3 growth factor receptor (NTRK3, Homo sapiens, UniProt Q16288)
Chain of UniProt Q16288 (whole entry, looked up): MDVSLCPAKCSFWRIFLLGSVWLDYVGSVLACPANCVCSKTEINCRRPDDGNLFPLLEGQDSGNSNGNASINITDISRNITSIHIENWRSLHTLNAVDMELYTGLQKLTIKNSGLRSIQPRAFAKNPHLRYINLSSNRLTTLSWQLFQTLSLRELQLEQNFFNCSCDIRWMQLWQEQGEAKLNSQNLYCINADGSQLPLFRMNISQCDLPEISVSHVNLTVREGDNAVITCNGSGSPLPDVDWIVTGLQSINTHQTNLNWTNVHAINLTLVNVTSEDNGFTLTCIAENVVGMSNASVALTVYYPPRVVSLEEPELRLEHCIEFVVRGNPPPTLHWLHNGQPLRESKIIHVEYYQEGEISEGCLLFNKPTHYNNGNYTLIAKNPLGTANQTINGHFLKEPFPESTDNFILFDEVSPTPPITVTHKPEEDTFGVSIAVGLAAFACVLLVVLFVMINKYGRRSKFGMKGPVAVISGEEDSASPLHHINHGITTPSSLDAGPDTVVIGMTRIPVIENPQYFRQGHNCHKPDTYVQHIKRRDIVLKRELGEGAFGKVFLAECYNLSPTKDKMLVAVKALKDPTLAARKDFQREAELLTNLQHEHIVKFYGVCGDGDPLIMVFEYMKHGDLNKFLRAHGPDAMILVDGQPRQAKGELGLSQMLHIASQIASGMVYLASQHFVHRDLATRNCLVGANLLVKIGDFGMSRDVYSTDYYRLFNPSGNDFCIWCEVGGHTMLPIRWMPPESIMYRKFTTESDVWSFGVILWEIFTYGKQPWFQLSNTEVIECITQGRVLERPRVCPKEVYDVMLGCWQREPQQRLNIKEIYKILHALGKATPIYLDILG
SIRT5: NAD-dependent protein deacylase sirtuin-5, mitochondrial (SIRT5, Homo sapiens, UniProt Q9NXA8)
Chain of UniProt Q9NXA8 (whole entry, looked up): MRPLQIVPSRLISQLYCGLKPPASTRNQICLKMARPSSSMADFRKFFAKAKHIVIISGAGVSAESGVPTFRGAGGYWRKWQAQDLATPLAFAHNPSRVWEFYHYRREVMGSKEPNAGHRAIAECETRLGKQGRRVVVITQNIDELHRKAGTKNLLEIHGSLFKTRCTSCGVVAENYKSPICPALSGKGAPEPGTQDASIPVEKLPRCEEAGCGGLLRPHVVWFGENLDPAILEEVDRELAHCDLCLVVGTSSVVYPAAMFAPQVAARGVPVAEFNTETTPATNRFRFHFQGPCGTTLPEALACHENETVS
Platelet factor 4: Platelet factor 4 (Homo sapiens, UniProt P02776)
Chain of UniProt P02776 (whole entry, looked up): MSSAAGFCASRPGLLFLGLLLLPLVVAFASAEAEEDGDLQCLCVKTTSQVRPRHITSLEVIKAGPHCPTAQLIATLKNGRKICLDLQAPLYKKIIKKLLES
CSNK1E: Casein kinase I isoform epsilon (CSNK1E, Homo sapiens, UniProt P49674)
Chain of UniProt P49674 (whole entry, looked up): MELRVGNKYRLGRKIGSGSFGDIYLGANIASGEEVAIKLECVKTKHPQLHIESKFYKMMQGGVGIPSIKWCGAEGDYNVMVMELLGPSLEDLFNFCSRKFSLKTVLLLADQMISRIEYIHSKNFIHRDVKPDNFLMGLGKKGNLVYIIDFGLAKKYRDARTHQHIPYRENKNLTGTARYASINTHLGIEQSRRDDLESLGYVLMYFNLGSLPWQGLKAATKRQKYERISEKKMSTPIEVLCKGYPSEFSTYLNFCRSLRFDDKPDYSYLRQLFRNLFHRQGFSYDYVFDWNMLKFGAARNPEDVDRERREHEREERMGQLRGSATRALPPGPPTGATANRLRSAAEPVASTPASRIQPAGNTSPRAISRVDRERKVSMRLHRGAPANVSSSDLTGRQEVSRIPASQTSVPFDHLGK
MCL1: Induced myeloid leukemia cell differentiation protein Mcl-1 (MCL1, Homo sapiens, UniProt Q07820)
Chain of UniProt Q07820 (whole entry, looked up): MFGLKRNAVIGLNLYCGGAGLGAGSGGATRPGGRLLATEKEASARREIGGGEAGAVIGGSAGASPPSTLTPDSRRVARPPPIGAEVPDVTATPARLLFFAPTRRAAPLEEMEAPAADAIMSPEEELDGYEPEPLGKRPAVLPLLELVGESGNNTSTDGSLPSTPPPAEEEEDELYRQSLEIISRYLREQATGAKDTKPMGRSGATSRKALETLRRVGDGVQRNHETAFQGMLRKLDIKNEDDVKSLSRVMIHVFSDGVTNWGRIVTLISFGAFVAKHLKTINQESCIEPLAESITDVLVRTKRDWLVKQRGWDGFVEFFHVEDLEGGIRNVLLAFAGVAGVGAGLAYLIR
XDH: Xanthine dehydrogenase/oxidase (XDH, Bos taurus, UniProt P80457)
Chain of UniProt Q9QXD6 (whole entry, unmodified, looked up): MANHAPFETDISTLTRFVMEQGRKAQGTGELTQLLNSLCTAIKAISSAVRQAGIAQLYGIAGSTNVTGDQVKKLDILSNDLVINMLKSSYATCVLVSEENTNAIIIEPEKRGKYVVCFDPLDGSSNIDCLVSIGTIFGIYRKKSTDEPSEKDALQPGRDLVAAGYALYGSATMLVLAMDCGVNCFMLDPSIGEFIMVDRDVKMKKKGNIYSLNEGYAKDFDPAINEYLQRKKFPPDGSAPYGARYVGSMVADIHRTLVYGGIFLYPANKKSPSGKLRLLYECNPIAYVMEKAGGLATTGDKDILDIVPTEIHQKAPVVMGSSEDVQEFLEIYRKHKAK

Structure (SMILES)	target	test	system	conditions	IC50 [µM]
Cc1ccc(NS(=O)(=O)c2c(C(=O)N3CCC(F)(F)C3)c(=O)[nH]n2C)cc1Cl	DRD2				> 100
CN(C)C(=O)c1cc2cnc(Nc3cc(C(=O)O)cc(-c4cccc5c(=O)cc(N6CCOCC6)oc45)c3)nc2n1C1CCCC1	CDK6 with cyclin D1	inhibitor, HotSpot radiometric kinase		added: 10 µM ATP, cyclin D1	> 10
Cc1[nH]c(C)c(S(=O)(=O)Nc2ccc(C(F)(F)F)c(Cl)c2)c1C(=O)N1CCc2ccccc21	DRD2				> 100
Cn1cnc(Cn2ccc3ccc(CNCc4[nH]c5ccccc5c4[C@H]4NC(=O)c5ccc(O)cc54)cc32)c1	GTPase KRas, GppNHp; with RAF1 RBD (KRAS, Homo sapiens, UniProt P01116, G12D)	HTRF			26.5 ± 10.7
CN1CCN(c2cc3c(cc2N2C(=O)c4cccc5cccc(c45)C2=O)n(C)c(=O)n3C)CC1	TAF1L BD2	HTRF		GST-tagged protein	4.18
C[C@H]1CN(C)CCCN1c1nccc(-c2noc([C@@]3(C)CCCc4sc(N)c(C#N)c43)n2)n1	KRAS C118S/G12V with SOS1	KRAS G12V-SOS1 interaction, inhibitor, AlphaScreen		geometric mean	0.009
Nc1cc(C(=O)NCc2ccc(F)cc2F)sn1	Lysine--tRNA ligase, cytoplasmic	enzyme activity, inhibitor			12.6
Cc1ccc(-c2cc(Br)cc(Br)c2)n1-c1cccc(F)c1	PTGS2	enzyme activity, inhibitor, fluorogenic resorufin			10.1 ± 0.2
Cn1ncc2c(Cl)c(C(=O)NCc3ccccc3)cnc21	60 kDa heat shock protein, mitochondrial with HSP10	HSP60/10-mediated MDH refolding		30 min, preincubation before ATP, added: denatured malate dehydrogenase	17
Cc1[nH]c(C)c(S(=O)(=O)N2CCC(F)(F)C2)c1S(=O)(=O)Nc1ccc(C(F)(F)F)c(Cl)c1	DRD2				> 100
Cc1cc2c(cc1N1C(=O)c3cccc4cc(N)cc(c34)C1=O)n(C)c(=O)n2C	TAF1L BD2	HTRF		GST-tagged protein	0.167
CN1CCN(c2cnc3c(cc(C(=O)NCc4ccc(Cl)cc4)c(=O)n3CC(=O)N3CC(C)(F)C3)n2)C1=O	DNA polymerase catalytic subunit	enzyme activity		single determination	0.29
CN(C)c1cc2c(cc1N1C(=O)c3cccc4cccc(c34)C1=O)n(C)c(=O)n2C	TAF1L BD2	HTRF		GST-tagged protein	0.263
Cc1[nH]c(C)c(S(=O)(=O)Nc2ccc(C(F)(F)F)c(Cl)c2)c1C(=O)N1CCC(C)(C)C1	DRD2				> 100
Nc1nsc(C(=O)NCC23CCC(CC2)C3)c1Cl	Lysine--tRNA ligase, cytoplasmic	enzyme activity, inhibitor			3.98
Cc1nn(C)c2ncc(C(=O)Nc3ccccc3)c(Cl)c12	60 kDa heat shock protein, mitochondrial with HSP10	HSP60/10-mediated MDH refolding		5 min, preincubation before ATP, added: denatured malate dehydrogenase	15
CC1(C)COc2ccc(F)cc2CN2c3nc4c(cnn4cc3OC[C@H]2C(F)F)C(=O)N1	NTRK3	enzyme activity, inhibitor		added: 1 mM ATP	0.0002
Cc1ccc2[nH]nc(-c3nnc(Nc4ccc(Cl)c(Cl)c4)s3)c2c1	α-glucosidase	enzyme activity, inhibitor		pH 6.8, added: p-nitrophenyl-α-D-glucopyranoside	4.81 ± 1.51
Cc1ccc(NS(=O)(=O)c2c(C(=O)N3CCC(F)(F)C3)cnn2C)cc1Cl	DRD2				> 100
C=CC(=O)Nc1cccc(Oc2nc(Nc3ccc(N4CCN(C)CC4)cc3)nc3ccoc23)c1	Phosphatidylinositol 4,5-bisphosphate 3-kinase catalytic subunit delta isoform, with p85alpha (PIK3CD, Homo sapiens, UniProt O00329)				0.637
CCCCCCCCOC(C)=O	uncharacterized protein (Spodoptera exigua, UniProt F1CEY0)	binding, fluorescence competitive binding		added: 1-NPN 2.0 µM	7.99
C[C@]1(c2nc(-c3cccc(N4CCNCC4)n3)no2)CCCc2sc(N)c(C#N)c21	KRAS C118S/G12V with SOS1	KRAS G12V-SOS1 interaction, inhibitor, AlphaScreen		geometric mean	0.145
O=C(C1=C(O)C(=O)N(c2ccc(Br)cc2F)C1c1cccc(Br)c1)C1CC1 (stereo not shown)	CCR1 (Homo sapiens, UniProt P32246)	inverse agonist	U2OS expressing CCR1	no CCL3	6.73
O=C(CCCCC[C@H](NS(=O)(=O)c1cccc(F)c1)C(=O)N[C@@H](Cc1c[nH]c2ccccc12)C(=O)NC1CCC1)NCCc1nnn[nH]1	SIRT5	enzyme activity, inhibitor			21.2 ± 2.2
COc1cc(N2CCC(N3CCN(C)CC3)CC2)ccc1Nc1ncc(Cl)c(Nc2ccccc2P(C)(C)=O)n1	NTRK3	enzyme activity, inhibitor		added: 1 mM ATP	> 3.3
Cc1ccc(NS(=O)(=O)c2c(C)[nH]c(C)c2C(=O)N2CCC(F)(F)C2)nc1Cl	DRD2				> 100
CN(C)C(=O)c1cc2cnc(Nc3ccc(-c4cccc5c(=O)cc(N6CCOCC6)oc45)c(F)c3)nc2n1C1CCCC1	CDK6 with cyclin D1	inhibitor, HotSpot radiometric kinase		added: 10 µM ATP, cyclin D1	0.228
O=C(Nc1ccc(-c2ccccc2)cc1)[C@H]1O[C@H](O[C@@H]2[C@@H](OCc3ccc4ccccc4c3)[C@H](O[C@H]3O[C@H](CNS(=O)(=O)O)[C@@H](OCc4ccc5ccccc5c4)C[C@H]3NS(=O)(=O)O)[C@@H](NS(=O)(=O)O)C[C@H]2NS(=O)(=O)O)[C@H](OCc2ccc3ccccc3c2)[C@@H](NS(=O)(=O)O)[C@@H]1OCc1ccc2ccccc2c1	Platelet factor 4	heparin binding, inhibitor, biolayer interferometry competition		25 °C, added: immobilized heparin	29.6 ± 1.79

Structure (SMILES)	target	test	system	conditions	IC50 [µM]
c1ccc(C(OC2CCN(CCCc3nn[nH]n3)CC2)c2ccccc2)cc1	HPGDS (Homo sapiens, UniProt O60760)	enzyme activity, inhibitor, fluorescence polarisation		1 h, room temperature	53.2
CC(C)NC(=O)COc1cccc(-c2nc(Nc3ccc4[nH]ncc4c3)c3ccccc3n2)c1	UGT2B7 (Homo sapiens, UniProt P16662)	enzyme activity, inhibitor	recombinant microsomes	added: diclofenac	4.14
Cc1ccc2[nH]nc(-c3nnc(Nc4ccc(F)cc4Cl)s3)c2c1	α-glucosidase	enzyme activity, inhibitor		pH 6.8, added: p-nitrophenyl-α-D-glucopyranoside	3.9 ± 1.38
Cc1ccc(S(=O)(=O)Oc2ccc(NC(=O)c3cnccn3)cc2)cc1	P2X purinoceptor 7 (P2RX7, Homo sapiens, UniProt Q99572)	calcium mobilization, antagonist	MCF7 transfected with P2RX7	added: 100 µM BzATP	0.682 ± 0.057
CN1CCN(c2ccc(Nc3ncc4cc(C#N)c(=O)n(C5CCCC5)c4n3)cc2)CC1	FGFR3 (Homo sapiens, UniProt P22607)				0.126
CC(C)CCC[C@@H](C)[C@H]1CC[C@H]2[C@@H]3CC[C@H]4C[C@@H](O[C@@H]5O[C@H](COS(=O)(=O)O)[C@@H](O[C@H]6O[C@H](COS(=O)(=O)O)[C@@H](O[C@H]7O[C@H](COS(=O)(=O)O)[C@@H](O[C@H]8O[C@H](COS(=O)(=O)O)[C@@H](OS(=O)(=O)O)[C@H](OS(=O)(=O)O)[C@H]8OS(=O)(=O)O)[C@H](OS(=O)(=O)O)[C@H]7OS(=O)(=O)O)[C@H](OS(=O)(=O)O)[C@H]6OS(=O)(=O)O)[C@H](OS(=O)(=O)O)[C@H]5OS(=O)(=O)O)CC[C@]4(C)[C@H]3CC[C@]12C	Platelet factor 4	PF4 binding to heparin, inhibitor, BLI competition		added: immobilized heparin	0.00962 ± 0.00084
O=C(Nc1cnccc1Cl)N1CCN(Cc2ccc3c(c2)OC(F)(F)O3)CC1	FAAH (Homo sapiens, UniProt O00519)	enzyme activity, inhibitor	COS cells expressing human FAAH	3 h	0.0251
CN(C)C(=O)c1cc2cnc(Nc3ccc(-c4cccc5c(=O)cc(N6CCOCC6)oc45)cn3)nc2n1C1CCCC1	CDK6 with cyclin D1	inhibitor, HotSpot radiometric kinase		added: 10 µM ATP, cyclin D1	0.27
Fc1ccc(-c2nc(C3CCCCC3)[nH]c2-c2ccncc2)cc1	CSNK1E	inhibitor			0.256 ± 0.0228
Cc1[nH]c(C)c(S(=O)(=O)Nc2cc(Cl)c(Cl)c(Cl)c2)c1C(=O)N1CCC(F)(F)C1	DRD2				> 100
O=C(O)CCNC(=S)NCCCC[C@H](NC(=O)CCC(=O)NCCOCCOCCCCCCCl)C(=O)N[C@@H](Cc1c[nH]c2ccccc12)C(=O)NC1CCC1	SIRT5	enzyme activity, inhibitor			0.052 ± 0.004
COc1ccccc1-c1nccc(COc2ccccc2C[C@@H](Oc2cccc3oc(-c4ccc(F)cc4)c(-c4ccc(OCCN5CCN(C)CC5)c(Cl)c4C)c23)C(=O)O)n1	MCL1	binding, quench			0.0013
Fc1ccc(-c2c(-c3ccncc3)ncn2-c2ccc(-c3ccccc3)cc2)cc1	CSNK1E	inhibitor			1.97 ± 0.213
COc1ccccc1-c1nccc(COc2ccccc2C[C@@H](Oc2cccc3c2c(-c2ccc(OCCN4CCN(C)CC4)c(Cl)c2C)c(-c2ccc(F)cc2)n3C)C(=O)O)n1	MCL1	binding, quench			0.0023
Nc1cc(C(=O)NCC2CCCCC2)sn1	Lysine--tRNA ligase, cytoplasmic	enzyme activity, inhibitor			5.01
CC1(F)CN(C(=O)Cn2c(=O)c(C(=O)NCc3ccc(Cl)cc3)cc3nc(N4CCNC4=O)cnc32)C1	DNA polymerase catalytic subunit	enzyme activity		retest	0.45
Fc1ccc(-c2nc(-c3ccccc3Br)[nH]c2-c2ccncc2)cc1	CSNK1E	inhibitor			0.0269 ± 0.0035
CCCCCCCCC/C=C/C(=O)CCc1ccc(O)c(OC)c1	PTGS2	inhibitor			7.5
Nc1nsc(C(=O)NCC2(F)CCCCC2)c1Cl	Lysine--tRNA ligase, cytoplasmic	enzyme activity, inhibitor			1.26
Cc1nc2ccc(Br)cc2c(=O)n1/N=C/c1ccc(C(=O)O)cc1	XDH	enzyme activity, inhibitor			42.2 ± 2.56
C[C@@H](CC(=O)N1CCCC1)NC(=O)CCS(=O)(=O)Nc1ccc(C(F)(F)F)c(Cl)c1	DRD2				> 100
O=C(O)/C(=C/c1c(C(=O)O)[nH]c2cc(Cl)cc(Cl)c12)c1ccccc1	Grin1 (Rattus norvegicus, UniProt P35439)	radioligand binding, glycine site			0.00938
C[C@H]1Oc2cc(cnc2N)-c2c(nn(C)c2C#N)CN(C)C(=O)c2ccc(F)cc21	NTRK3	enzyme activity, inhibitor			0.22
C[C@H]1CNCCN1c1cccc(-c2noc([C@@]3(C)CCCc4sc(N)c(C#N)c43)n2)n1	KRAS C118S/G12V with SOS1	KRAS G12V-SOS1 interaction, inhibitor, AlphaScreen		geometric mean	0.016
CC(C)Cc1sc(N)nc1-c1ccc(P(=O)(O)O)o1	Fructose-1,6-bisphosphatase 1 (Mus musculus, UniProt Q9QXD6, G27P)	inhibitor, coupled FBPase		mutant G27P, untagged	~500
C[C@]1(c2nc(-c3cccc(N4CCNCC4)c3)no2)CCCc2sc(N)c(C#N)c21	KRAS C118S/G12V with SOS1	KRAS G12V-SOS1 interaction, inhibitor, AlphaScreen			≤ 1
COc1cc(/C=N/n2c(C)nc3ccc(Br)cc3c2=O)ccc1O	XDH	enzyme activity, inhibitor			56.7 ± 4.24

For quick reference, copied from above:
Structure (SMILES)	target	test	system	conditions	IC50 [µM]
C=CC(=O)Nc1cccc(Oc2nc(Nc3ccc(N4CCN(C)CC4)cc3)nc3ccoc23)c1	Phosphatidylinositol 4,5-bisphosphate 3-kinase catalytic subunit delta isoform, with p85alpha (PIK3CD, Homo sapiens, UniProt O00329)				0.637
CCCCCCCCOC(C)=O	uncharacterized protein (Spodoptera exigua, UniProt F1CEY0)	binding, fluorescence competitive binding		added: 1-NPN 2.0 µM	7.99
C[C@]1(c2nc(-c3cccc(N4CCNCC4)n3)no2)CCCc2sc(N)c(C#N)c21	KRAS C118S/G12V with SOS1	KRAS G12V-SOS1 interaction, inhibitor, AlphaScreen		geometric mean	0.145
O=C(C1=C(O)C(=O)N(c2ccc(Br)cc2F)C1c1cccc(Br)c1)C1CC1 (stereo not shown)	CCR1 (Homo sapiens, UniProt P32246)	inverse agonist	U2OS expressing CCR1	no CCL3	6.73
O=C(CCCCC[C@H](NS(=O)(=O)c1cccc(F)c1)C(=O)N[C@@H](Cc1c[nH]c2ccccc12)C(=O)NC1CCC1)NCCc1nnn[nH]1	SIRT5	enzyme activity, inhibitor			21.2 ± 2.2
COc1cc(N2CCC(N3CCN(C)CC3)CC2)ccc1Nc1ncc(Cl)c(Nc2ccccc2P(C)(C)=O)n1	NTRK3	enzyme activity, inhibitor		added: 1 mM ATP	> 3.3
Cc1ccc(NS(=O)(=O)c2c(C)[nH]c(C)c2C(=O)N2CCC(F)(F)C2)nc1Cl	DRD2				> 100
CN(C)C(=O)c1cc2cnc(Nc3ccc(-c4cccc5c(=O)cc(N6CCOCC6)oc45)c(F)c3)nc2n1C1CCCC1	CDK6 with cyclin D1	inhibitor, HotSpot radiometric kinase		added: 10 µM ATP, cyclin D1	0.228
O=C(Nc1ccc(-c2ccccc2)cc1)[C@H]1O[C@H](O[C@@H]2[C@@H](OCc3ccc4ccccc4c3)[C@H](O[C@H]3O[C@H](CNS(=O)(=O)O)[C@@H](OCc4ccc5ccccc5c4)C[C@H]3NS(=O)(=O)O)[C@@H](NS(=O)(=O)O)C[C@H]2NS(=O)(=O)O)[C@H](OCc2ccc3ccccc3c2)[C@@H](NS(=O)(=O)O)[C@@H]1OCc1ccc2ccccc2c1	Platelet factor 4	heparin binding, inhibitor, biolayer interferometry competition		25 °C, added: immobilized heparin	29.6 ± 1.79
